Measured values collected from several papers.
Each line is one published result; not all experiments were run side by side. ± gives the spread as reported. Values after ≈ are worked out from the molar mass of the structure shown.

C[C@@H]1C[C@H](Nc2ccccc2)c2cc(F)ccc2N1C(=O)c1ccc(C#N)c(Cl)c1  logit mortality (Aedes albopictus; 1 µM, second-instar larvae): 0.36
COc1c2c(cc3oc(=O)cc(-c4ccc(O)cc4)c13)C(=O)c1cc(C)cc(O)c1C2=O  zone of inhibition (Bacillus cereus; MTCC 1306; 100 µg/disc): 12 mm
C[C@@H]1C[C@H](Nc2ccccc2)c2cc(F)ccc2N1C(=O)c1ccccc1  logit mortality (Aedes albopictus; 1 µM, second-instar larvae): 0.11
O=C1CC(c2ccc(O)cc2)Oc2cc(O)cc([O][Ga+][O]c3cc(O)cc4c3C(=O)CC(c3ccc(O)cc3)O4)c21 (centres unmarked)  number of differentially expressed genes (Pseudomonas aeruginosa; RNA-seq; PAO1; 4 µM, 4 h): 1530
CC[Se][C@@H]1O[C@H](COC(C)=O)[C@@H](OC(C)=O)[C@H](OC(C)=O)[C@H]1OC(C)=O  viability (Trypanosoma brucei brucei; bloodstream form; 5 µM, 24 h, 1 % DMSO): 92.8 ± 19.5%
Cc1ccc(NCC(=O)Nc2ccc(F)c(Cl)c2)cc1S(=O)(=O)N1CCOCC1  antiplasmodial activity (Plasmodium cynomolgi; liver-stage small forms (hypnozoites); 10 µM): no effect
CC(C)C[C@H](NC(=O)OCc1ccccc1)C(=O)N[C@H](C=O)C[C@H]1CCNC1=O  EC50 (human rhinovirus 51; viral replication; WI-38; 37 °C): 0.7 ± 0.28 µM
CC(=O)[O-].O.O.O.O.[Ni+2].[O-]c1ccc(Br)cc1C=NCCN1CCOCC1  inhibition zone diameter (Bacillus cereus; 20 µL of 100 µM per disc): 23 mm
O=C(Nc1ccc2c(c1)CN(c1ccc(Br)cc1)C2=O)N1CCN(c2ccc(F)cc2)CC1  IC50 (Trypanosoma brucei brucei; cell growth, resazurin; Squib 427; 3 days): 0.4 µM
C[C@@H]1C[C@H](Nc2ccccc2)c2cc(F)ccc2N1C(=O)c1ccc(C#N)c(F)c1  logit mortality (Aedes albopictus; 1 µM, second-instar larvae): 1.28
Cc1ccc(NC(=O)N2CCCN3CCC(c4ccc(C#CC5CCCC5O)cc4)C3C2)cc1 (centres unmarked)  EC90 (Toxoplasma gondii; parasite growth, luciferase; HFF, RH type I luciferase): 0.52 µM
CC(C)C[C@H](NC(=O)OCc1cccc(Cl)c1)C(=O)N[C@@H](C[C@H]1CCNC1=O)C(=O)C(=O)NC1CC1  EC50 (Enterovirus D68; viral replication; WI-38; 37 °C): 0.09 ± 0.01 µM
O=C(Nc1ccccc1)N1CCCN2CCC(c3ccc(C#Cc4cncnc4)cc3)C2C1 (centres unmarked)  growth inhibition (Toxoplasma gondii; HFF, RH (type I); concentration not given): inactive
Cc1ccc(N(CCc2nnc(S)o2)S(=O)(=O)c2ccc(C)cc2)cc1  relative inhibition (Colletotrichum capsici; cup plate method; 100 µg/mL; relative to: fluconazole): 224%
O=C[C@H](C[C@H]1CCNC1=O)NC(=O)[C@H](CC1CCCCC1)NC(=O)OCc1cccc(Cl)c1  EC50 (human rhinovirus 51; viral replication; WI-38; 37 °C): 0.16 ± 0.06 µM
Cc1nccc2c3ccccc3n(Cc3cccnc3)c12  viability (Echinococcus granulosus; eosin staining; sensu stricto protoscoleces; 40 µM, 48 h, 10% fetal bovine serum): 59 ± 2.86%
CC[C@@H](C)[C@@H](NC(=O)[C@@H](C)NC(=O)[C@@H](CCCCN)NC(=O)[C@@H](CC(C)C)NC(=O)[C@@H](C)NC(=O)[C@H](NC(=O)[C@@H](CCCCN)NC(=O)[C@@H](CC(C)C)NC(=O)[C@H](NC(=O)[C@@H](CCCCN)NC(=O)[C@@H](CCCCN)NC(=O)[C@@H](CCCCN)NC(=O)[C@@H](C)NC(=O)[C@@H](CCCCN)NC(=O)[C@@H](CO)NC(=O)[C@@H](Cc1ccccc1)NC(=O)[C@H](NC(=O)[C@@H](CCCCN)NC(=O)[C@@H](CC(C)C)NC(=O)[C@@H](Cc1ccccc1)NC(=O)[C@@H](CO)NC(=O)[C@@H](CCCCN)NC(=O)[C@@H](Cc1c[nH]c2ccccc12)NC(=O)[C@@H](CCCCN)NC(C)=O)[C@H](C)O)C(C)C)[C@H](C)O)C(=O)N[C@H](CO)C(=O)N[C@H](CCCCN)C(N)=O  MIC (Acinetobacter baumannii; 689, Mueller-Hinton broth; 24 h, 37 °C): 0.7 µM (≈ 2.13 µg/mL)
O=C[C@H](C[C@H]1CCNC1=O)NC(=O)[C@H](Cc1ccccc1)NC(=O)OCc1ccccc1  EC50 (human rhinovirus 51; viral replication; WI-38; 37 °C): 0.55 ± 0.21 µM
CN[C@H](CC(C)C)C(=O)N[C@H]1C(=O)N[C@@H](CC(N)=O)C(=O)N[C@H]2C(=O)N[C@H]3C(=O)N[C@H](C(=O)N[C@H](C(=O)O)c4cc(O)cc(O)c4-c4cc3ccc4O)[C@H](O)c3ccc(c(Cl)c3)Oc3cc2cc(c3O[C@@H]2O[C@H](CO)[C@@H](O)[C@H](O)[C@H]2O[C@H]2C[C@](C)(NCc3ccc(C(=O)OCCCCCCN(Cc4ccccn4)Cc4ccccn4)cc3)[C@H](O)[C@H](C)O2)Oc2ccc(cc2Cl)[C@H]1O  regulation factor (Bacillus subtilis; protein synthesis, measured: YtrB; 168; concentration not given, 10 min, at peak effective concentration; relative to: untreated): 3.17 ± 0.4
Cc1ccc(S(=O)(=O)Nn2c3c(cc(-c4nc5ccccc5s4)c2=O)CCCC3)cc1  selectivity index (Coxsackievirus B4; viral replication, plaque reduction; BGM cells; relative to: CC50 over IC50): 2.66
C[C@@H]1C[C@H](Nc2ccccc2)c2cc(F)ccc2N1C(=O)c1ccc(C#N)cc1  logit mortality (Aedes albopictus; 1 µM, second-instar larvae): 0.47
N#Cc1nc(N2CCOCC2)nc(N(Cc2ccc(F)cc2)CC2CCCOC2)n1 (centres unmarked)  reduction of cyst viability (Toxoplasma gondii; qPCR plaque; HFF host cells, bradyzoite cysts; 5 µM, 7 days daily; relative to: DMSO): ~80%
COC(=O)/C=C/c1ccc(OCCNS(=O)(=O)c2ccc(NC(C)=O)cc2)c(OC)c1  protective activity (tobacco mosaic virus; half-leaf method; tobacco; 500 µg/mL, 24 h before inoculation): 59.7 ± 6.2%
Fc1ccc(Cn2c3ccccc3c3ccncc32)cc1  viability (Echinococcus granulosus; eosin staining; sensu stricto protoscoleces; 40 µM, 48 h, 10% fetal bovine serum): 93.1 ± 1.01%
CCN(CC)CC#CCNc1ccnc2cc(Cl)ccc12  IC50 ratio (Plasmodium falciparum; schizont maturation; field isolates; Albumax medium; relative to: field isolates over 3D7): ~2 fold
COC(=O)C(CS[Se][C@@H]1O[C@H](COC(C)=O)[C@@H](OC(C)=O)[C@H](OC(C)=O)[C@H]1NC(C)=O)NC(=O)OC(C)(C)C (some centres unmarked)  viability (Trypanosoma brucei brucei; bloodstream form; 5 µM, 24 h, 1 % DMSO): 120 ± 6.4%
Cc1ncccc1-c1ccc(C(=O)N2CC[C@H](C(=O)Nc3cc(F)c(F)c(F)c3)C2)[nH]1  HBV DNA remaining (hepatitis B virus; measured: intracellular HBV DNA; HepG2.2.15; 1 µM, 144 h; relative to: vehicle): 31%
CCCCCCCCCC1CC2CCC3CC(CCCCCCCCC)NC(=N1)N23 (centres unmarked)  IC50 (Candida krusei; fungal growth; ATCC 6258): 2.47 µM
CCOC(=O)/C=C/c1ccc(OCCNS(=O)(=O)c2ccc(C)cc2)c(OC)c1  curative activity (tobacco mosaic virus; half-leaf method; tobacco; 500 µg/mL): 57.9 ± 10.3%
COC1C=COC2(C)Oc3c(C)c(O)c4c(c3C2=O)C2=NC3(CCN(CC(C)C)CC3)NC2=C(NC(=O)C(C)=CC=CC(C)C(O)C(C)C(O)C(C)C(OC(=O)Nc2cccnn2)C1C)C4=O (centres unmarked)  MIC50 (Mycobacteroides abscessus; 76 clinical isolates; 3 subspecies): 0.13 µM (≈ 0.12 µg/mL)
N=C(NO)NN=Cc1nccc2c([N+](=O)[O-])cccc12  selectivity index (human mastadenovirus C; plaque reduction; A549, McEwen; relative to: TC50 over IC50): 6.3
O=C(CCNC(=O)c1ccsc1)Nc1cccc(Oc2ccc(Cl)cc2)c1  precore mRNA level (hepatitis B virus; RT-qPCR; HepG2.2.15.7; 10 µM; relative to: control): 0.84 fold
C[C@@H]1C[C@H](Nc2ccccc2)c2cc(F)ccc2N1C(=O)c1ccc(Cl)cc1  logit mortality (Aedes albopictus; 1 µM, second-instar larvae): 0.32
Cc1ccc(NC(=O)N2CCCN3CCC(c4ccc(C#CC5CCC(F)(F)CC5)cc4)C3C2)cc1 (centres unmarked)  EC90 (Toxoplasma gondii; parasite growth; HFF, RH type I luciferase): 3.89 ± 0.32 µM
COc1ccc(-c2nc(-c3ccccc3OC)[nH]c2-c2ccc(OC)cc2)cc1  worm killing (Schistosoma mansoni; female worms; 5 µM): 0%
Cc1ncnc(C)c1-c1ccc(C(=O)N2CC[C@H](C(=O)Nc3cc(F)c(F)c(F)c3)C2)[nH]1  HBV DNA remaining (hepatitis B virus; measured: intracellular HBV DNA; HepG2.2.15; 1 µM, 144 h; relative to: vehicle): 32%
CCc1cccc2c(C(=O)COC(=O)C34CC5CC(CC(Br)(C5)C3)C4)c[nH]c12  tiller number (Oryza sativa; Nipponbare; 1 µM, 40-day-old plants): increased
Cc1ncc([N+](=O)[O-])n1CCOCc1nnc(SCC(=O)c2ccc(F)cc2)o1  inhibition zone diameter (Enterobacter cloacae; DMSO; 60 µg/mL, 24 h, 37 °C): 10 to 15 mm
C#CCN1CCc2c(n(C(=C)C(=O)OC)c3ccccc23)C(C(=O)OC)C1 (centres unmarked)  inhibition (hepatitis B virus; rcDNA level; HuH7-NTCP; 5 µM): > 60%
COc1ccc(NC(=O)N2CCCN3CC[C@H](c4ccc(CCc5ccccc5)cc4)[C@@H]3C2)cc1  growth inhibition (Toxoplasma gondii; HFF, RH (type I); concentration not given): inactive
Cc1cc(O)c2c(c1)C(=O)c1cc3oc(=O)cc(C)c3c(O)c1C2=O  zone of inhibition (Bacillus cereus; MTCC 1306; 100 µg/disc): < 8 mm
C#CCN1CCc2c3n(c4ccccc24)C(=O)C(=C)C3(C(=O)OC)C1 (centres unmarked)  inhibition (hepatitis B virus; cccDNA level, qPCR; HuH7-NTCP; 5 µM): > 60%
C[N+]1=C2C=C(NCCc3c[nH]c4ccccc34)C(=O)c3[nH]cc(c32)CC1  IC50 (Babesia divergens; intraerythrocytic growth, SYBR Green I; Rouen 1987): < 0.002 µM
COc1ccc(NC(=O)N2CCCN3CCC(c4ccc(C#CC5CCCC5)cc4)C3C2)cc1 (centres unmarked)  EC90 (Toxoplasma gondii; parasite growth, luciferase; HFF, RH type I luciferase): 1.21 µM
C#CCN1CCC23C(=C(C(=O)OC)CC(C(=O)OC)C12)Nc1ccccc13 (centres unmarked)  inhibition (hepatitis B virus; rcDNA level; HuH7-NTCP; 5 µM): > 60%
Cc1c2c(cc3oc(=O)cc(-c4ccccc4)c13)C(=O)c1cccc(O)c1C2=O  inhibition zone diameter (Bacillus cereus; MTCC 1306; 100 µg/disc): 8 mm
O=C(Nc1ccccc1)N1CCCN2CCC(c3ccc(C#Cc4cccnn4)cc3)C2C1 (centres unmarked)  EC90 (Toxoplasma gondii; parasite growth; HFF, RH type I luciferase): 4.17 µM
O=C(O)C(Cc1ccccc1)N1CSC(=S)N(CCN(CCN2CN(C(Cc3ccccc3)C(=O)O)CSC2=S)CCN2CN(C(Cc3ccccc3)C(=O)O)CSC2=S)C1 (centres unmarked)  IC50 (Leishmania tropica; parasite growth, MTT; 48 h, promastigote): 20 µM
CCCCCCCCC1=C(C(CCCCCCC(=O)OC)OC)C1 (centres unmarked)  selectivity index (Toxoplasma gondii; Vero, RH; relative to: CC50 over EC50): > 4
COc1ncccc1C(=O)Nc1ccccc1Nc1ccccc1  inhibition (Sclerotinia sclerotiorum; microbial growth; 50 µg/mL): 0%
C[C@@H]1C(=O)O[C@@H](C)/C=C/C=C\[C@@H](C)[C@@H]2C=C[C@@H]3C[C@@]4(C)O[C@H]4[C@@H](C)[C@H]3[C@@H]2C(=O)C(Cl)(Cl)C1=O  MIC90 (Staphylococcus aureus; MSSA and MRSA clinical isolates): 0.1 µg/mL (≈ 0.202 µM)
COc1ccc(NC(=O)N2CCCN3CCC(c4ccc(C#Cc5cnccn5)cc4)C3C2)cc1 (centres unmarked)  growth inhibition (Toxoplasma gondii; HFF, RH (type I); concentration not given): inactive
Cc1ncc([N+](=O)[O-])n1CCOCc1nnc(SCC(=O)c2ccc(O)cc2)o1  inhibition zone diameter (Enterobacter cloacae; DMSO; 60 µg/mL, 24 h, 37 °C): 10 to 15 mm
Nc1ccn(C[C@@H](CO)OCP(=O)(O)OCCCS(=O)(=O)CCCCCCCCCCCCCC2CCC2)c(=O)n1  EC90 (human betaherpesvirus 5; standard isolates): < 0.0001 µM
Cc1ccc(NC(=O)N2CCCN3CCC(c4ccc(C#CC5CCSCC5)cc4)C3C2)cc1 (centres unmarked)  EC90 (Toxoplasma gondii; parasite growth; HFF, RH type I luciferase): 2.1 ± 1.1 µM
O=C(N[C@@H](CC1CCCCC1)C(=O)N[C@@H](C[C@H]1CCNC1=O)C(=O)C(=O)NC1CC1)OCc1cccc(Cl)c1  EC50 (Enterovirus D68; viral replication; WI-38; 37 °C): 0.04 ± 0.02 µM

For quick reference, copied from above:
CCN(CC)CC#CCNc1ccnc2cc(Cl)ccc12  IC50 ratio (Plasmodium falciparum; schizont maturation; field isolates; Albumax medium; relative to: field isolates over 3D7): ~2 fold
Cc1ncnc(C)c1-c1ccc(C(=O)N2CC[C@H](C(=O)Nc3cc(F)c(F)c(F)c3)C2)[nH]1  HBV DNA remaining (hepatitis B virus; measured: intracellular HBV DNA; HepG2.2.15; 1 µM, 144 h; relative to: vehicle): 32%
O=C(CCNC(=O)c1ccsc1)Nc1cccc(Oc2ccc(Cl)cc2)c1  precore mRNA level (hepatitis B virus; RT-qPCR; HepG2.2.15.7; 10 µM; relative to: control): 0.84 fold
Cc1ncccc1-c1ccc(C(=O)N2CC[C@H](C(=O)Nc3cc(F)c(F)c(F)c3)C2)[nH]1  HBV DNA remaining (hepatitis B virus; measured: intracellular HBV DNA; HepG2.2.15; 1 µM, 144 h; relative to: vehicle): 31%
Cc1ncc([N+](=O)[O-])n1CCOCc1nnc(SCC(=O)c2ccc(O)cc2)o1  inhibition zone diameter (Enterobacter cloacae; DMSO; 60 µg/mL, 24 h, 37 °C): 10 to 15 mm
